Results collected from several papers.
Lines come from different studies, so protocols differ. “And” joins repeats or separate records; there may be more than shown. ± gives the spread as reported.

For `Cn1cncc1-c1c(F)cncc1NC(=O)c1c(N)nn2cc(F)cnc12`, the Emax was 59.8% (erythroid progenitor production, inhibitor, PK/PD model; human).
`O=C1CCc2ccc(OCCCCN3CCN(c4cccc(Cl)c4Cl)CC3)cc2N1` — result for “stopping or switching”: 24% (patients CYP2D6 NM; 3 months).
With `O=C(OC(C(F)(F)F)C(F)(F)F)N1CCN(Cc2cccc(Oc3ccccc3)c2)CC1` the k4 was 0.0819 min⁻¹ (PET blocking study; rhesus monkey, brain HIP; 0.01 mg/kg, compound pretreatment, together with: [18F]T-401 tracer).
`CN(C(=O)n1cnc(-c2ccc[n+]([O-])c2)c1)C1CCCCC1` gave an AUC(0-tau) of 130 ng·h/mL (item: LEA; human, plasma; 2.5 mg once daily, day 10).
With `O[C@H]1CCCN[C@@H]1CCCn1cnc2c(Cl)c(Cl)ccc21` the AUC(0-tau) was 93.3 ng·h/mL (ELISA, item: Pro-C6; healthy human volunteers, serum; intraduodenal, 50 mg twice daily, day 14, multiple ascending dose).
`O=C(O)CNC(=O)Cc1ccccc1` has a sarcomere length of 1.72 µm (ventricular cardiomyocytes, C57BL/6 mouse; dose not given, 0.336 s).
Under “durable clinical benefit”, `COc1cc2nccc(Oc3ccc(NC(=O)C4(C(=O)Nc5ccc(F)cc5)CC4)cc3)c2cc1OC` is recorded as roughly 25% (Kaposi sarcoma patients; dose not given).
`COc1ccc(-c2cncc(N[C@@H](C)c3cccc(NC(=O)c4cncc(C)c4)c3)n2)cc1OC` has a fold change of 1.51 (item: rno-miR-212-3p; rat SU5416/hypoxia model, lung; dose not given; reference: SU5416/hypoxia vehicle).
For `NCC(=O)Nc1cncc(-c2nn3c(=O)cc(N4CCNCC4)nc3s2)c1`, the inhibition was 88.5% (ADP-induced platelet aggregation, light transmission aggregometry; human, stable CAD on aspirin, platelets ex vivo; subcutaneous, 0.075 mg/kg, 30 min post-dose, together with: ADP 20 µM).
For `C[C@@H]1CCC[C@H](n2cnc(-c3cc(Cl)ccc3-n3cc(Cl)nn3)cc2=O)c2cc(ccn2)-c2c(cnn2C(F)F)NC1=O`, “concentration for aPTT prolongation” read 1400 nM (pooled normal human plasma; IC2× aPTT, STA-PTT reagent).
Under “progressive disease as best response”, `COc1cc2cc(-c3ccc(CC(=O)Nc4cc(C(C)(C)C(F)(F)F)no4)cn3)cnc2cc1OC` is recorded as 0% (RECIST v1.1; RET-altered advanced solid tumour patients; oral, 100 mg once daily, phase I).
`O=C1N(Cc2ccccc2Cl)c2ccccc2C12NN=C(c1ccccc1)S2` (centres unmarked) has a T/C of greater than 100% (SK-BR-3 xenograft, mouse; oral, 1277.5 mg/kg total, subcutaneous xenograft; reference: vehicle).
`CC1(C)CCC(CN2CCN(c3ccc(C(=O)NS(=O)(=O)c4ccc(NCC5CCOCC5)c([N+](=O)[O-])c4)c(Oc4cnc5[nH]ccc5c4)c3)CC2)=C(c2ccc(Cl)cc2)C1` has an EC50 of 83 nM (cell killing, flow cytometry PI exclusion; canine blood CD21+ B cells, dog 33; 24 h).
For `C[C@@H](NC(=O)N1C(=O)[C@H](Cc2ccnc(N)c2)[C@H]1C(=O)O)C1CCCCC1`, “time to ACT Emax” read 60 h (human; iv infusion, 0.3 mg/kg/h, 24 h).
`CC(C)C[C@@H](NC(=O)[C@H](C)NC(=O)CNC(=O)[C@@H](NC=O)C(C)C)C(=O)N[C@@H](C)C(=O)N[C@@H](C(=O)N[C@H](C(=O)N[C@@H](C(=O)N[C@@H](Cc1c[nH]c2ccccc12)C(=O)N[C@H](CC(C)C)C(=O)N[C@@H](Cc1cccc2cc[nH]c12)C(=O)N[C@H](CC(C)C)C(=O)N[C@@H](Cc1c[nH]c2ccccc12)C(=O)N[C@H](CC(C)C)C(=O)N[C@@H](Cc1c[nH]c2ccccc12)C(=O)NCCO)C(C)C)C(C)C)C(C)C` has an EC50 of 14.2 ± 7.78 nM (H+/Na+ transport, pyranine pH-gradient; EYPC/cholesterol LUVs 2:1).
The percent change of `NC(=O)c1cnc2[nH]ccc2c1N[C@@H]1[C@@H]2CC3C[C@H]1C[C@@](O)(C3)C2` is reported as -0.12% (CD8+ central memory T cells, flow cytometry; Caucasian humans, peripheral blood; 20 mg single dose; reference: baseline).
`Cc1ccc(C(=O)Nc2ccnc(S(N)(=O)=O)c2)c(N2CCCC(F)(F)CC2)n1` gave a conduction velocity of 102 % baseline (Macaca mulatta, C-nociceptors; intravenous, 0.6 mg/kg bolus then 0.8 mg/kg/h, 120 min).
`CCN1CCN(Cc2ccc(Nc3ncc(F)c(-c4cc(F)c5nc6n(c5c4)[C@H](C)CCC6)n3)nc2)CC1` has a DCR of 70.8% (RECIST v1.1; advanced solid tumour patients; dose not given, Phase Ia monotherapy).
`CN(C)C(=O)c1cc2cnc(Nc3ccc(N4CCNCC4)cn3)nc2n1C1CCCC1`: “GSEA enrichment score” 0.334 (RNA-seq GSEA, item: HALLMARK_ANDROGEN_RESPONSE; MB002 tumour; concentration not given, in vivo; reference: vehicle, direction not given).
For `[Cl-].[Cl-].[Pt+2].[Ru+2].c1ccc(-c2nc3cc4ccccc4cc3nc2-c2ccccn2)nc1.c1cnc2c(c1)ccc1cccnc12.c1cnc2c(c1)ccc1cccnc12`, “negative activation entropy” read 157 ± 10 J/(mol·K) (chloride substitution, UV-vis kinetics; aqueous buffer; concentration not given, pH 7.2, first substitution step, together with: guanosine 5'-monophosphate).
`CCN(Cc1nc2c(N)nc3cc(-c4cc[nH]n4)ccc3c2[nH]1)C(C)=O` gave a fold change of 1.7 (immunohistochemistry, item: TAMs; human, injected tumour lesions; 2000 µg; reference: baseline).
Under “cardiac output increase”, `CCOCc1nc(O)c(-c2nnc(Cc3ccc(Cl)cn3)o2)c(O)c1-c1c(OC)cccc1OC` is recorded as 26% (renal hypertensive rat; po, 0.2 mg/kg once daily, peak exposure; reference: vehicle).
The LVDP of `O=C(/C=C/c1ccc(O)c(O)c1/C=C/c1ccc(O)c(O)c1)O[C@H](Cc1ccc(O)c(O)c1)C(=O)O` is reported as 52.6 mmHg (isolated myocardial tissue; 10 µM).
Under “pAKT change from baseline”, `CO[C@H]1CC[C@H](N2C(=O)CNc3ncc(-c4ccc(C(C)(C)O)nc4)nc32)CC1` is recorded as -48.4% (flow cytometry; stimulated monocytes, human, blood; 60 mg single dose, 3 h, median; reference: baseline).
For `Cc1noc(C)c1-c1cc(C(O)(c2ccccn2)c2ccccn2)c2nc(C3CC3)[nH]c2c1`, the maximum induction was 24.7% (item: HEXIM1 expression; human patients; dose not given, day 1, 24 h).
`C=CCn1c(=O)c2cnc(Nc3ccc(N4CCN(C)CC4)cc3)nc2n1-c1ccc2c(n1)[C@@](O)(CC)CC2`: “tumour growth inhibition” 34.8% (NCI-H82 xenograft, BALB/c nude mice; oral, 80 mg/kg once daily x 21, day 20; reference: vehicle).
`O=C(O)c1ccc(-n2cc(CNc3cc(Br)cc(C(F)(F)F)c3)c(-c3ccc(F)c(F)c3)n2)cc1` has a survival of roughly 80% (Caenorhabditis elegans, S. aureus infected; 2 µg/mL, 5 days).
`COc1nnc2ccc(N3CCC(c4ccc(OCCN5CCN(C)C(=O)[C@H]5C)cc4)CC3)nn12` — result for “time above HEXIM1 threshold”: 6.97 h (human patients; 40 mg once daily, 1.5-fold above baseline).
Under “EEG Beta2-power Fz-Cz”, `OC(CCN1CCCCC1)(c1ccccc1)C1CC2C=CC1C2` (centres unmarked) is recorded as 0.9 µV² (resting-state EEG; healthy elderly humans; oral, 2 mg, eyes closed, LS mean).
For `CS(=O)(=O)CCNCc1ccc(-c2ccc3ncnc(Nc4ccc(OCc5cccc(F)c5)c(Cl)c4)c3c2)o1`, the ED50 was 109 mg/kg (tumour growth; MDA-MB-361 orthotopic xenograft, mouse; oral, daily for 28 days).
For `CC(C)[C@H](C(=O)Nc1ccc(C(=O)NO)cc1)c1ccccc1`, the tumour volume was 8.9 cm3 (volumetric MRI; human, right meningioma; dose not given, day 170).
`C[C@@H](O)CCOC(=O)C[C@@H](C)O` gave a metabolite level of -1.91 ± 0.9 µmol/L (item: C8:1 acylcarnitine; human, plasma; 60 min, log2-transformed values).
Under “pathway activation z-score”, `Cn1cc(Nc2nccc(-c3ccc4c(c3)CN(C3COC3)CC[C@H]4NC(=O)c3cn(C(C)(C)C)nn3)n2)cn1` is recorded as 2.12 (item: Tryptophan Degradation III (Eukaryotic); splenic B cells, mouse; in vivo, 30 mg/kg, IgD-activated B cells; reference: vehicle, positive = activation).
`c1ccc(-c2n[nH]cc2-c2ccnc3ccccc23)nc1` — result for “log2 fold change”: 1.52 (kinase binding, competitor, MIB/MS competition, item: AKL1; Candida albicans cell lysate; 100 nM; reference: DMSO).
`N#Cc1ccc2c(c1)[C@H]1CCCN(C(=O)c3ccc4[nH]cnc4c3)[C@H]1C2` — result for “change from baseline”: -55 nmol/L (item: cortisol; human, Phase II trial; oral, 80 mg once daily, HPA axis, mean).
`CN(C)C(=O)Oc1cccc([N+](C)(C)C)c1` has a train-of-four ratio of 73 (neuromuscular block reversal; rat; dose not given, 9.5 (unit not given), together with: cisatracurium; reference: T1 twitch).
The fibrosis area of `C[C@H](CS)C(=O)N1CCC[C@H]1C(=O)O` is reported as 0.48% and 2.13% and 0.73% and 1.28% and 0.83% and 1.15% (mouse, unilateral ureteral obstruction, right kidney (control); dose not given).
`C[C@H](Oc1ccc(Br)cc1-c1ccon1)C(=O)O`: “difference from placebo” -0.056 ms (relative refractory period; human, tibialis anterior muscle; 400 mg, SAD).

A few entries again:
The percent change of `NC(=O)c1cnc2[nH]ccc2c1N[C@@H]1[C@@H]2CC3C[C@H]1C[C@@](O)(C3)C2` is reported as -0.12% (CD8+ central memory T cells, flow cytometry; Caucasian humans, peripheral blood; 20 mg single dose; reference: baseline).
`Cc1ccc(C(=O)Nc2ccnc(S(N)(=O)=O)c2)c(N2CCCC(F)(F)CC2)n1` gave a conduction velocity of 102 % baseline (Macaca mulatta, C-nociceptors; intravenous, 0.6 mg/kg bolus then 0.8 mg/kg/h, 120 min).
`CCN1CCN(Cc2ccc(Nc3ncc(F)c(-c4cc(F)c5nc6n(c5c4)[C@H](C)CCC6)n3)nc2)CC1` has a DCR of 70.8% (RECIST v1.1; advanced solid tumour patients; dose not given, Phase Ia monotherapy).
`CN(C)C(=O)c1cc2cnc(Nc3ccc(N4CCNCC4)cn3)nc2n1C1CCCC1`: “GSEA enrichment score” 0.334 (RNA-seq GSEA, item: HALLMARK_ANDROGEN_RESPONSE; MB002 tumour; concentration not given, in vivo; reference: vehicle, direction not given).
For `[Cl-].[Cl-].[Pt+2].[Ru+2].c1ccc(-c2nc3cc4ccccc4cc3nc2-c2ccccn2)nc1.c1cnc2c(c1)ccc1cccnc12.c1cnc2c(c1)ccc1cccnc12`, “negative activation entropy” read 157 ± 10 J/(mol·K) (chloride substitution, UV-vis kinetics; aqueous buffer; concentration not given, pH 7.2, first substitution step, together with: guanosine 5'-monophosphate).
`CCN(Cc1nc2c(N)nc3cc(-c4cc[nH]n4)ccc3c2[nH]1)C(C)=O` gave a fold change of 1.7 (immunohistochemistry, item: TAMs; human, injected tumour lesions; 2000 µg; reference: baseline).
